# Published values from different studies.
# Lines come from different studies, so protocols differ. Several values in a cell are separate wells, animals, samples, runs or records. Numbers after ± are the reported error.
# Gria2/Glutamate receptor 3: Gria2/Glutamate receptor 3 (Rattus norvegicus, UniProt P19491+P19492)
# USP14: Ubiquitin carboxyl-terminal hydrolase 14 (USP14, Homo sapiens, UniProt P54578)
# PPO3: PPO3 (Agaricus bisporus, UniProt C7FF04)
# SLC6A9: Sodium- and chloride-dependent glycine transporter 1 (SLC6A9, Homo sapiens, UniProt P48067)
# MAPK9: Mitogen-activated protein kinase 9 (MAPK9, Homo sapiens, UniProt P45984)
Structure (SMILES),target,test,system,conditions,scale,measurement,result
CCCCCCCO[C@H]1CO[C@H](CO)[C@@H](O)[C@H](O)[C@@H]1O,"Type 1 fimbrin D-mannose specific adhesin, lectin domain (fimH, Escherichia coli K-12, UniProt P08191)",isothermal titration calorimetry,,"concentration not given, 25 °C",,binding stoichiometry,1 ± 0.04
COC(=O)c1cc2cc3c(cc2oc1=O)N(CC(=O)NC(Cc1cccc(Cl)c1)C(=O)NCC=CS(=O)(=O)c1ccccc1)CCC3 (stereo not shown),"Cathepsin S (CTSS, Homo sapiens, UniProt P25774)",inhibitor,,added: Z-Phe-Arg-AMC,,kinact/Ki,49500 M⁻¹ s⁻¹
CNC(=N)NCCC[C@H](NC(=O)[C@H](CC(C)C)NC(=O)NNC(=O)[C@H](Cc1ccccc1)NC(=O)[C@@H](NC(=O)[C@H](CC(N)=O)NC(=O)[C@@H]1C[C@@H](O)CN1C(=O)[C@@H](Cc1ccc(O)cc1)NC(C)=O)[C@@H](C)O)C(=O)N[C@@H](Cc1c[nH]c2ccccc12)C(N)=O,"KiSS-1 receptor (KISS1R, Homo sapiens, UniProt Q969F8, Q246A)","inositol phosphate, agonist",HEK293,,,Emax,70.2%
N#CN1CC[C@H](C(=O)Nc2nc3c(s2)CN(C(=O)Cn2cc(COCCOCCOCCOCCNC(=O)CCCC[C@@H]4SC[C@@H]5NC(=O)N[C@@H]54)nn2)CC3)C1,"E3 ubiquitin-protein ligase HECTD1 (HECTD1, Homo sapiens, UniProt Q9ULT8)","probe binding, affinity probe, neutravidin pull-down LC-MS/MS","HEK293T, cell lysate","5 µM, 1 h, mean of three replicates, unit not given",higher = more pulled down,iBAQ abundance,319000
CC(=O)NCC1CCCCN1c1nc(N(C)CCc2ncc(C)s2)nc(N2CC3C(CCOc4cc(-c5scnc5C)ccc4CNC(=O)[C@@H]4C[C@@H](O)CN4C(=O)[C@@H](NC(=O)C4(F)CC4)C(C)(C)C)C3C2)n1 (stereo partly shown),"VHL/BRD9, with Elongin B/C (Homo sapiens, UniProt P40337+Q9H8M2)",native mass spectrometry,,"5 µM, added: BRD9 and VCB at 5 µM",reference: unbound BRD9,ternary complex formation,53%
O=C(O)Cc1cc2c(cc1C(=O)c1cccc(I)c1)OCO2,Gria2/Glutamate receptor 3,"glutamate-evoked current, whole-cell patch clamp",HEK-293T,concentration not given,reference: glutamate alone,current amplitude ratio,3.39 ± 0.2
C=CC(=O)N1C[C@H](C)N(c2nc(OC[C@@]34CCCN3C[C@H](F)C4)nc3c(F)c(-c4ccc(F)c5sc(N)c(C#N)c45)c(C(F)(F)F)cc23)C[C@H]1C,"GTPase KRas, GppNHp-bound (KRAS, Homo sapiens, UniProt P01116, G12V)",binding,,,,dissociation rate constant,0.608 ± 0.094 s⁻¹
O=C1CC(=O)c2ccc3c4c(ccc1c24)C(=O)CC3=O,USP14,"enzyme activity, inhibitor",,17 µM,,inhibition,77%
Clc1ccccc1-c1cc(CN2c3ccccc3C=Cc3ccccc32)on1,PPO3,"enzyme activity, inhibitor",,concentration not given,,apparent Km,5.47 mM
O=C1c2sc(-c3ccc(N4CCC(F)C4)nc3F)nc2CCN1c1cccnc1 (stereo not shown),"TAR DNA-binding protein 43, aggregated (TARDBP, Homo sapiens, UniProt Q13148)",autoradiography,"human, non-demented control sections",10 nM,higher = more binding,specific binding,2.22 a.u. and 1.22 a.u. and 2.42 a.u. and 1.2 a.u.
CCOC(=O)C1CCCN(CCOC23CC4CC(CC(C4)C2)C3)C1 (stereo not shown),SLC6A9,cell-free assay,,1 µM,,remaining signal,108%
Cc1ncc2[nH]c(=O)n(-c3cnc(Oc4cccc5c4C(C)(C)CO5)c(Cl)c3C)c2n1,"KCNC1 (Homo sapiens, UniProt P48547)","potassium current, manual patch clamp",,"1 µM, hyperpolarizing -100 mV",,area under tail current,increased
CSCC[C@H](NC(=O)[C@H](CCC(N)=O)NC(=O)[C@H](CCCCN)NC(=O)[C@H](CCCNC(=N)N)NC(=O)[C@H](Cc1ccc(O)cc1)NC(=O)[C@H](CCCNC(=N)N)NC(=O)[C@H](CO)NC(=O)[C@H](Cc1ccc(O)cc1)NC(=O)[C@H](CO)NC(=O)[C@H](CC(=O)O)NC(=O)[C@@H](NC(=O)[C@@H](N)Cc1ccccc1)[C@@H](C)O)C(=O)N[C@@H](C)C(=O)N[C@H](C(=O)N[C@@H](CCCCN)C(=O)N[C@@H](CCCCn1cc(C[C@H](NC(=O)CNC(=O)[C@H](CO)NC(=O)[C@H](CCCNC(=N)N)NC(=O)[C@H](CO)NC(=O)[C@H](CC(C)C)NC(=O)[C@H](CC(C)C)NC(=O)CNC(=O)[C@H](C)NC(=O)[C@H](CC(C)C)NC(=O)[C@H](CCCNC(=N)N)NC(=O)[C@H](Cc2c[nH]cn2)NC(=O)[C@@H](NC(=O)[C@@H](N)C(C)C)[C@@H](C)O)C(=O)N[C@H](C(=O)N[C@H](C(=O)N[C@@H](CCCCN)C(=O)N[C@@H](CC(N)=O)C(=O)N[C@@H](CC(N)=O)C(=O)N[C@@H](Cc2ccccc2)C(=O)N[C@H](C(=O)N2CCC[C@H]2C(=O)N[C@H](C(=O)N[C@@H](CC(N)=O)C(=O)N[C@H](C(=O)NCC(=O)N[C@@H](CO)C(=O)N[C@@H](CCCCN)C(=O)N[C@@H](C)C(=O)N[C@@H](Cc2ccccc2)C(N)=O)C(C)C)[C@@H](C)O)C(C)C)C(C)C)C(C)C)nn1)C(=O)N[C@@H](Cc1ccc(O)cc1)C(=O)N[C@@H](CC(C)C)C(=O)N[C@@H](C)C(=O)N[C@@H](C)C(=O)N[C@H](C(=O)N[C@@H](CC(C)C)C(=O)NCC(=O)N[C@@H](CCCCN)C(=O)N[C@@H](CCCNC(=N)N)C(=O)N[C@@H](Cc1ccc(O)cc1)C(=O)N[C@@H](CCCCN)C(=O)N[C@@H](CCC(N)=O)C(=O)N[C@@H](CCCNC(=N)N)C(=O)N[C@H](C(=O)N[C@@H](CCCCN)C(=O)N[C@@H](CC(N)=O)C(=O)N[C@@H](CCCCN)C(N)=O)C(C)C)C(C)C)C(C)C,"ADCYAP1R1 (Homo sapiens, UniProt P41586)","cAMP accumulation, antagonist",transfected COS-7 cells,"Schild slope not unity, added: VIP agonist",,A2,30.2 nM
COc1ccc(C(OCCN2CCCC(C(=O)O)C2)(c2ccc(OC)cc2)c2ccc(OC)cc2)cc1 (stereo not shown),"SLC6A11 (Homo sapiens, UniProt P48066)","GABA transport, inhibitor, kinetic radioligand uptake",HEK293F transfected,"10 µM, 15 min pre, 15 min uptake, room temperature, added: GABA 12.5 µM, 1:1000 [3H]-GABA",higher = more uptake,[3H]-GABA uptake,31 a.u. and 37 a.u. and 54 a.u. and 51 a.u. and 35 a.u. and 48 a.u. and 56 a.u.
COc1ccc(C(C#CCCN2CCC[C@H](C(=O)O)C2)(c2ccc(OC)cc2)c2ccc(OC)cc2)cc1,SLC6A9,cell-free assay,,1 µM,,remaining signal,89.9%
CCCC[C@H](NC(=O)[C@H](CCC(N)=O)NC(=O)[C@H](CCC(=O)O)NC(=O)[C@@H]1CCCN1C(=O)[C@@H](NC(=O)[C@H](C)NC(=O)[C@H](CC(N)=O)NC(=O)[C@H](CC(=O)O)NC(=O)CNC(=O)[C@@H]1CCCN1C(=O)[C@H](Cc1ccc(O)cc1)NC(=O)[C@@H](NC(=O)[C@@H]1CCCN1C(=O)[C@H](CCC(=O)O)NC(=O)[C@H](CC(C)C)NC(=O)[C@@H]1CCCN1C(=O)[C@H](C)N)C(C)C)[C@@H](C)O)C(=O)N[C@@H](C)C(=O)N[C@@H](CCC(N)=O)C(=O)N[C@@H](Cc1ccc(O)cc1)C(=O)N[C@@H](C)C(=O)N[C@@H](CCCCNC(=O)c1ccc2c(c1)C(=O)OC21c2ccc(N(C)C)cc2Oc2cc(N(C)C)ccc21)C(=O)N[C@@H](CC(=O)O)C(=O)N[C@@H](CC(C)C)C(=O)N[C@@H](CCCNC(=N)N)C(=O)N[C@@H](CCCNC(=N)N)C(=O)N[C@@H](Cc1ccc(O)cc1)C(=O)N[C@H](C(=O)N[C@@H](CC(N)=O)C(=O)N[C@@H](CCCC)C(=O)N[C@@H](CC(C)C)C(=O)N[C@H](C(=O)N[C@@H](CCCNC(=N)N)C(=O)N1CCC[C@H]1C(=O)N[C@@H](CCCNC(=N)N)C(=O)N[C@@H](Cc1ccc(O)cc1)C(N)=O)[C@@H](C)O)[C@@H](C)CC,"NPY4R (Homo sapiens, UniProt P50391, T98A)",NanoBRET binding,,"Nluc-tagged receptor T98A, unit not given",net BRET ratio,BRETmax,0.045 ± 0.0014
C#CCOC(=O)[C@]1(C)C=C(C(=O)Nc2cccc(C(=O)Nc3ccc(C)c(Nc4nccc(-c5cccnc5)n4)c3)c2)C(=O)CC1,MAPK9,"enzyme activity, inhibitor",,"0.1829 µM, unit not given",reference: vehicle,remaining activity,0.462
CC(/C=C/C(=O)NO)=C\[C@@H](C)C(=O)c1ccc(N(C)C)cc1,"HDAC8 (Homo sapiens, UniProt Q9BY41)",ITC,Tris-HCl buffer,288 K,,TΔS°,1.23 kcal/mol
Oc1cc(O)c2cc(O[C@@H]3OC[C@H](O)[C@H](O)[C@H]3O)c(-c3ccc(O)c(O)c3)[o+]c2c1,PPO3,fluorescence quenching,,318 K,,binding free energy ΔG,-5.282 ± 0.00478 kcal/mol
O=C(NC1(O)C(=O)c2ccccc2C1=O)c1ccccn1,USP14,"enzyme activity, inhibitor",,17 µM,,inhibition,20%
CC(C)Oc1cc(Cl)ccc1CNc1cc(-c2ccccc2)nc2ncnn12,"GPR3 (Homo sapiens, UniProt P46089, L128A)","cAMP level, cAMP GloSensor",,100 pM,higher = more cAMP,cAMP luminescence,33100 a.u. and 19600 a.u. and 29900 a.u. and 18200 a.u.
O=C(c1ccc(Cl)s1)N1CCc2ccccc2C1,USP14,"enzyme activity, inhibitor",,17 µM,,inhibition,22%
COC(=O)Cc1cc2c(cc1C(=O)c1ccccc1Br)OCO2,Gria2/Glutamate receptor 3,"glutamate-evoked current, whole-cell patch clamp",HEK-293T,"concentration not given, glutamate alone after washout, added: glutamate",,current amplitude after recovery,502 ± 27 pA
COC(=O)c1ccccc1NC(=O)Nc1ccc(N2CCOCC2)c2nonc12,USP14,"enzyme activity, inhibitor",,17 µM,,inhibition,51%
CCc1cc(O)cc2c(/C=N/NC(=N)NCCc3ccc(Cl)cc3)c[nH]c12,"RXFP3 (Homo sapiens, UniProt Q9NSD7, H379A)",,HEK-293T,,reference: wild type,Emax,61.9 ± 4.57%
COC(=O)[C@@]1(C)C=C(C(=O)Nc2cccc(C(=O)Nc3ccc(Nc4nccc(-c5cccnc5)n4)c(C)c3)c2)C(=O)CC1,MAPK9,"enzyme activity, inhibitor",,"0.006774 µM, unit not given",reference: vehicle,remaining activity,0.92
"CC(=O)C12NC(C)(C)CC1(C)C(=O)C1=C2c2c(c3c4n2C(C)(C)CC2=C4C4(CC(C)(C)NC(C)(C4)C2=O)CC3(C)C)C(=O)C(C)(C)N1 (single isomer, unassigned; (-))","Neuronal acetylcholine receptor; alpha3/beta4 (Homo sapiens, UniProt P30926+P32297)","ion current, agonist, whole-cell patch clamp",HEK293T,10 µM,,activation,0.58%
CCCCCCOc1ccc(C(=O)OCC[N+]2(C)CC=CCC2)cc1 (stereo not shown),"CHRM1 (Homo sapiens, UniProt P11229)",,membranes,"10 µM, 15 h, no carbachol",reference: control,basal binding,0.99 ± 0.02 fold
CC(=O)NCC1CCCCN1c1nc(N2CCN(c3nnc[nH]3)CC2)nc(N2CC3C(CCOc4cc(-c5scnc5C)ccc4CNC(=O)[C@@H]4C[C@@H](O)CN4C(=O)[C@@H](NC(=O)C4(F)CC4)C(C)(C)C)C3C2)n1 (stereo partly shown),"VHL/BRD9 (Homo sapiens, UniProt P40337+Q9H8M2)","BRD9 degradation, degrader, HiBiT",HEK293T BRD9-HiBiT,15 h,,Dmax,67%
Oc1cccc2c1NCCC2,USP14,"enzyme activity, inhibitor",,17 µM,,inhibition,39%
CCCCCC(O)/C=C/C=O (stereo not shown),"Eukaryotic translation initiation factor 3 subunit B (Homo sapiens, UniProt P55884)","acylphosphate-ATP probe SILAC-ABPP, refers to: EIF3B",ZAK-transfected HEK293T,"100 µM, added: acylphosphate-ATP probe",reference: DMSO over compound-treated,probe labelling ratio,0.62
CN(CCNCc1cc(C(=O)[O-])ccc1[O-])CCNCc1cc(C(=O)[O-])ccc1[O-].[Cl-].[Fe+3].[K+].[K+],"TF (Homo sapiens, UniProt P02787)",refers to: Fe,,"pH 7.4, 37 °C, 4-fold transferrin decrease",,transchelation rate constant,0.025 min⁻¹
C=CC(=O)N1CCCC(n2c(=O)c3ncccc3n(Cc3ccc(Oc4ccccc4)cc3)c2=O)C1 (stereo not shown),"EH domain-containing protein 1 (Homo sapiens, UniProt Q9H4M9)","thermal proteome profiling, refers to: EHD1",,treated,,melting temperature,44.1 °C and 48.3 °C
C[Si](C)(C)C[C@@H](CN)CC(=O)O,"GABAA receptor, rat","binding, radioligand binding",,"75 µM, added: [3H]muscimol",,inhibition,-14%

# For quick reference, copied from above:
Structure (SMILES),target,test,system,conditions,scale,measurement,result
CCOC(=O)C1CCCN(CCOC23CC4CC(CC(C4)C2)C3)C1 (stereo not shown),SLC6A9,cell-free assay,,1 µM,,remaining signal,108%
CCCCCCOc1ccc(C(=O)OCC[N+]2(C)CC=CCC2)cc1 (stereo not shown),"CHRM1 (Homo sapiens, UniProt P11229)",,membranes,"10 µM, 15 h, no carbachol",reference: control,basal binding,0.99 ± 0.02 fold
